Measured values gathered from unrelated publications.
Each line is one published result; not all experiments were run side by side. Numbers after ± are the reported error.
B1: Gm4951 C235A (Mus musculus, UniProt Q3UED7); sequence looked up; chain MGQLFSSRRSEDQDLSSSFIEYLKECEKGINIIPHEIITSIEINMKKGNIQEVNSTVRDMLREIDNTPLNVALTGETGSGKSSFINTLRGIGHEEGGAAHTGVTDKTKERHPYEHPKMPNVVFWDLPGTGSEDFQPKTYLEKMKFYEYDFFIIISATRFKKNDIDLAKAIGIMKKEFYFVRTQVDSDLRNEEDFKPQTFDREKVLQDIRLNCVNTFRENGIAEPPIFLISNKNVAHYDFPVLMDKLISDLPVFKRQNFMFSLPNITDSVIEKKRNFLRWKTWLEGFADGLLSFFLESDLETLEKSMKFYRTVFGVDDASLQRLARAWEIDQVDQVRAMIKSPAVFTPTDEETIQERLSRYNQEFCLANGYLLPKNHCREILYLKLYFLDMVTEDAKTLLKEICLRN
B2: dsh 12-92 (Drosophila melanogaster, UniProt P51140); sequence looked up; chain KVIYHIDDETTPYLVKIPIPSAQVTLRDFKLVLNKQNNNYKYFFKSMDADFGVVKEEIADDSTILPCFNGRVVSWLVSADG
B3: dlg1 1-97 I34G/V37G/I38G (Drosophila melanogaster, UniProt P31007); sequence looked up; chain MPVKKQEAHRALELLEDYHARLSEPQDRALRIAGERGGRIFKSRLFQALLDIQEFYELTLLDDSKSIQQKTAETLQIATKWEKDGQAVKIADFIKSS
B4: SPOP W131L (Homo sapiens, UniProt O43791); sequence looked up; chain MSRVPSPPPPAEMSSGPVAESWCYTQIKVVKFSYMWTINNFSFCREEMGEVIKSSTFSSGANDKLKWCLRVNPKGLDEESKDYLSLYLLLVSCPKSEVRAKFKFSILNAKGEETKAMESQRAYRFVQGKDLGFKKFIRRDFLLDEANGLLPDDKLTLFCEVSVVQDSVNISGQNTMNMVKVPECRLADELGGLWENSRFTDCCLCVAGQEFQAHKAILAARSPVFSAMFEHEMEESKKNRVEINDVEPEVFKEMMCFIYTGKAPNLDKMADDLLAAADKYALERLKVMCEDALCSNLSVENAAEILILADLHSADQLKTQAVDFINYHASDVLETSGWKSMVVSHPHLVAEAYRSLASAQCPFLGPPRKRLKQS
B5: TOP2 C180A/C731A/Q807C (Saccharomyces cerevisiae, UniProt P06786); AlexaFluor 488/546 labels; sequence looked up; chain MSTEPVSASDKYQKISQLEHILKRPDTYIGSVETQEQLQWIYDEETDCMIEKNVTIVPGLFKIFDEILVNAADNKVRDPSMKRIDVNIHAEEHTIEVKNDGKGIPIEIHNKENIYIPEMIFGHLLTSSNYDDDEKKVTGGRNGYGAKLCNIFSTEFILETADLNVGQKYVQKWENNMSIAHPPKITSYKKGPSYTKVTFKPDLTRFGMKELDNDILGVMRRRVYDINGSVRDINVYLNGKSLKIRNFKNYVELYLKSLEKKRQLDNGEDGAAKSDIPTILYERINNRWEVAFAVSDISFQQISFVNSIATTMGGTHVNYITDQIVKKISEILKKKKKKSVKSFQIKNNMFIFINCLIENPAFTSQTKEQLTTRVKDFGSRCEIPLEYINKIMKTDLATRMFEIADANEENALKKSDGTRKSRITNYPKLEDANKAGTKEGYKCTLVLTEGDSALSLAVAGLAVVGRDYYGCYPLRGKMLNVREASADQILKNAEIQAIKKIMGLQHRKKYEDTKSLRYGHLMIMTDQDHDGSHIKGLIINFLESSFPGLLDIQGFLLEFITPIIKVSITKPTKNTIAFYNMPDYEKWREEESHKFTWKQKYYKGLGTSLAQEVREYFSNLDRHLKIFHSLQGNDKDYIDLAFSKKKADDRKEWLRQYEPGTVLDPTLKEIPISDFINKELILFSLADNIRSIPNVLDGFKPGQRKVLYGCFKKNLKSELKVAQLAPYVSEATAYHHGEQSLAQTIIGLAQNFVGSNNIYLLLPNGAFGTRATGGKDAAAARYIYTELNKLTRKIFHPADDPLYKYICEDEKTVEPEWYLPILPMILVNGAEGIGTGWSTYIPPFNPLEIIKNIRHLMNDEELEQMHPWFRGWTGTIEEIEPLRYRMYGRIEQIGDNVLEITELPARTWTSTIKEYLLLGLSGNDKIKPWIKDMEEQHDDNIKFIITLSPEEMAKTRKIGFYERFKLISPISLMNMVAFDPHGKIKKYNSVNEILSEFYYVRLEYYQKRKDHMSERLQWEVEKYSFQVKFIKMIIEKELTVTNKPRNAIIQELENLGFPRFNKEGKPYYGSPNDEIAEQINDVKGATSDEEDEESSHEDTENVINGPEELYGTYEYLLGMRIWSLTKERYQKLLKQKQEKETELENLLKLSAKDIWNTDLKAFEVGYQEFLQRDAEARGGNVPNKGSKTKGKGKRKLVDDEDYDPSKKNKKSTARKGKKIKLEDKNFERILLEQKLVTKSKAPTKIKKEKTPSVSETKTEEEENAPSSTSSSSIFDIKKEDKDEGELSKISNKFKKISTIFDKMGSTSATSKENTPEQDDVATKKNQTTAKKTAVKPKLAKKPVRKQQKVVELSGESDLEILDSYTDREDSNKDEDDAIPQRSRRQRSSRAASVPKKSYVETLELSDDSFIEDDEEENQGSDVSFNEED
B6: Rela 19-304 (Mus musculus, UniProt Q04207); sequence looked up; chain PYVEIIEQPKQRGMRFRYKCEGRSAGSIPGERSTDTTKTHPTIKINGYTGPGTVRISLVTKDPPHRPHPHELVGKDCRDGYYEADLCPDRSIHSFQNLGIQCVKKRDLEQAISQRIQTNNNPFHVPIEEQRGDYDLNAVRLCFQVTVRDPAGRPLLLTPVLSHPIFDNRAPNTAELKICRVNRNSGSCLGGDEIFLLCDKVQKEDIEVYFTGPGWEARGSFSQADVHRQVAIVFRTPPYADPSLQAPVRVSMQLRRPSDRELSEPMEFQYLPDTDDRHRIEEKRKR
B7: SPOP G128D (Homo sapiens, UniProt O43791); sequence looked up; chain MSRVPSPPPPAEMSSGPVAESWCYTQIKVVKFSYMWTINNFSFCREEMGEVIKSSTFSSGANDKLKWCLRVNPKGLDEESKDYLSLYLLLVSCPKSEVRAKFKFSILNAKGEETKAMESQRAYRFVQDKDWGFKKFIRRDFLLDEANGLLPDDKLTLFCEVSVVQDSVNISGQNTMNMVKVPECRLADELGGLWENSRFTDCCLCVAGQEFQAHKAILAARSPVFSAMFEHEMEESKKNRVEINDVEPEVFKEMMCFIYTGKAPNLDKMADDLLAAADKYALERLKVMCEDALCSNLSVENAAEILILADLHSADQLKTQAVDFINYHASDVLETSGWKSMVVSHPHLVAEAYRSLASAQCPFLGPPRKRLKQS
B8: PKD2 704-968 (Homo sapiens, UniProt Q13563); sequence looked up; chain IRKGYHKALVKLKLKKNTVDDISESLRQGGGKLNFDELRQDLKGKGHTDAEIEAIFTKYDQDGDQELTEHEHQQMRDDLEKEREDLDLDHSSLPRPMSSRSFPRSLDDSEEDDDEDSGHSSRRRGSISSGVSYEEFQVLVRRVDRMEHSIGSIVSKIDAVIVKLEIMERAKLKRREVLGRLLDGVAEDERLGRDSEIHREQMERLVREELERWESDDAASQISHGLGTPVGLNGQPRPRSSRPSSSQSTEGMEGAGGNGSSNVHV
B9: racE T25N/S192D (Dictyostelium discoideum, UniProt Q23862); sequence looked up; chain MSEDQGSGATRVKLVVVGDGAVGKNCLLICYAQNDFPVDYVPTVFENYTATRKRGNEDIKVHLWDTAGQEEYDRLRPLSYPGADVVLLCFSTISQSSYEAIRDKWAPEVNHYIPDVPSILVGTKIDLREQQHPDPNSGKFEPITADMGISMQKQIKAKKYLEVSAKTRQGLEEVFSAAIEIVLESRGMDKKDQDGSSSASGVPSGDKPTKGKAGKKKSGCIIL
B10: cas3 1-1076 (Pseudomonas aeruginosa, UniProt Q02ML8); chain MNILLVSQCEKRALSETRRILDQFAERRGERTWQTPITQAGLDTLRRLLKKSARRNTAVACHWIRGRDHSELLWIVGDASRFNAQGAVPTNRTCRDILRKEDENDWHSAEDIRLLTVMAALFHDIGKASQAFQAKLRNRGKPMADAYRHEWVSLRLFEAFVGPGSSDEDWLRRLADKRETGDAWLSQLARDDRQSAPPGPFQKSRLPPLAQAVGWLIVSHHRLPNGDHRGSASLARLPAPIQSQWCGARDADAKEKAACWQFPHGLPFASAHWRARTALCAQSMLERPGLLARGPALLHDSYVMHVSRLILMLADHHYSSLPADSRLGDPNFPLHANTDRDSGKLKQRLDEHLLGVALHSRKLAGTLPRLERQLPRLARHKGFTRRVEQPRFRWQDKAYDCAMACREQAMEHGFFGLNLASTGCGKTLANGRILYALADPQRGARFSIALGLRSLTLQTGQAYRERLGLGDDDLAILVGGSAARELFEKQQERLERSGSESAQELLAENSHVHFAGTLEDGPLREWLGRNSAGNRLLQAPILACTIDHLMPASESLRGGHQIAPLLRLMTSDLVLDEVDDFDIDDLPALSRLVHWAGLFGSRVLLSSATLPPALVQGLFEAYRSGREIFQRHRGAPGRATEIRCAWFDEFSSQSSAHGAVTSFSEAHATFVAQRLAKLEQLPPRRQAQLCTVHAAGEARPALCRELAGQMNTWMADLHRCHHTEHQGRRISFGLLRLANIEPLIELAQAILAQGAPEGLHVHLCVYHSRHPLLVRSAIERQLDELLKRSDDDAAALFARPTLAKALQASTERDHLFVVLASPVAEVGRDHDYDWAIVEPSSMRSIIQLAGRIRRHRSGFSGEANLYLLSRNIRSLEGQNPAFQRPGFETPDFPLDSHDLHDLLDPALLARIDASPRIVEPFPLFPRSRLVDLEHRRLRALMLADDPPSSLLGVPLWWQTPASLSGALQTSQPFRAGAKERCYALLPDEDDEERLHFSRYEEGTWSNQDNLLRNLDLTYGPRIQTWGTVNYREELVAMAGREDLDLRQCAMRYGEVRLRENTQGWSYHPYLGFKKYN
B11: clcA 1-465 C85A/L194A/I197A/L198A/I201A (Escherichia coli, UniProt P37019); chain MKTDTPSLETPQAARLRRRQLIRQLLERDKTPLAILFMAAVVGTLVGLAAVAFDKGVAWLQNQRMGALVHTADNYPLLLTVAFLASAVLAMFGYFLVRKYAPEAGGSGIPEIEGALEDQRPVRWWRVLPVKFFGGLGTLGGGMVLGREGPTVQIGGNIGRMVLDIFRLKGDEARHTLLATGAAAGLAAAFNAPAAGAAFIAEEMRPQFRYTLISIKAVFIGVIMSTIMYRIFNHEVALIDVGKLSDAPLNTLWLYLILGIIFGIFGPIFNKWVLGMQDLLHRVHGGNITKWVLMGGAIGGLCGLLGFVAPATSGGGFNLIPIATAGNFSMGMLVFIFVARVITTLLCFSSGAPGGIFAPMLALGTVLGTAFGMVAVELFPQYHLEAGTFAIAGMGALLAASIRAPLTGIILVLEMTDNYQLILPMIITGLGATLLAQFTGGKPLYSAILARTLAKQEAEQLARSK
UniProt P13393, sequence (whole entry, looked up): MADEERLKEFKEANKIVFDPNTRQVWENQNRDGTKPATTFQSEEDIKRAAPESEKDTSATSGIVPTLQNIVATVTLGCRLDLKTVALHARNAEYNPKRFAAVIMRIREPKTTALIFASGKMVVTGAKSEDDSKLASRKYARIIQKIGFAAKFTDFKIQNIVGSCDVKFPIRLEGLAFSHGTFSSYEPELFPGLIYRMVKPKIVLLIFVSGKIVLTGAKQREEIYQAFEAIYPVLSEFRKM
UniProt P26368, sequence (whole entry, looked up): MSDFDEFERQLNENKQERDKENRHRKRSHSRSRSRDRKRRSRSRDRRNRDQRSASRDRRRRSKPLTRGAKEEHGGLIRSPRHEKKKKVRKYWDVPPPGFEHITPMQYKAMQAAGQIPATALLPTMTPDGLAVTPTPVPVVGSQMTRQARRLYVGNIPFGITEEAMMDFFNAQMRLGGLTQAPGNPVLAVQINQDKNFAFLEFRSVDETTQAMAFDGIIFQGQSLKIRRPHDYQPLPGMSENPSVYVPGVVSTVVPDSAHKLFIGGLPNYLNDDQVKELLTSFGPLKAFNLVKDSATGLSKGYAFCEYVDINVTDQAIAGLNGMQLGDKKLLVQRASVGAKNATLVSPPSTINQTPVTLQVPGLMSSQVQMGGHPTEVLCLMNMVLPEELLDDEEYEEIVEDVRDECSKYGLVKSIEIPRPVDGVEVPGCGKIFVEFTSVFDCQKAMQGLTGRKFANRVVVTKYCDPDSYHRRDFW

Substance	target or system	assay	system	setting	measurement	result
B1 (Gm4951 C235A)	itself	mass photometry	–	–	binding	binds
B2 (dsh 12-92)	itself	SEC	–	–	binding	binds
TCCTGAAGAGGCGCCTATAAAAGGTCCTATCGTCGTCAAGTCAATCGGTCC (dsDNA; 5'-amino-C6 primer)	SPT15 full length assumed (Saccharomyces cerevisiae, UniProt P13393)	array	double-stranded DNA, one strand shown	TBP alone	Kd	0.0225 ± 0.0174 µM
B3 (dlg1 1-97 I34G/V37G/I38G)	itself	SEC	–	–	binding	binds
B4 (SPOP W131L)	itself	negative-stain TEM	–	–	binding	binds
AUGCUUAUU (ssRNA)	U2AF2 148-342 (Homo sapiens, UniProt P26368)	sequencing of bound RNA	RNA	motif only	Kd	6.62 µM
B5 (TOP2 C180A/C731A/Q807C)	itself	FRET or BRET	–	with: ADP, ATP, ADPNP	binding	binds
PYNNQGQQQNMESSG (TAF15 82-96 (Homo sapiens, UniProt Q92804); N-acetyl/C-amide; sequence looked up)	itself	negative-stain TEM	peptide	peptide	binding	binds
B6 (Rela 19-304)	itself	X-ray crystallography	–	–	binding	binds
B7 (SPOP G128D)	itself	negative-stain TEM	–	–	binding	binds
AFSSFN (DNAJB8 residues 147-152 (Homo sapiens))	itself	crystal structure	peptide	pH 7.5	binding	binds
B8 (PKD2 704-968)	itself	HDX-MS	–	–	binding	binds
B9 (racE T25N/S192D)	itself	SEC	–	–	binding	binds
DSNTRILIGSLVAIIFILLAIIVIILWRQFWQK (DDR2 395-427 C404S (Homo sapiens, UniProt Q16832); sequence looked up)	itself	SDS-PAGE	–	–	binding	binds
B10 (cas3 1-1076)	itself	cryo-EM	–	–	binding	binds
B11	itself	SEC	–	–	binding	binds
